Published values of several laboratories.
Every numbered part comes from another study and shows a few of its results, in no order. Positions count from the first letter of the parent shown.

Block 1
Target: CCNF, cyclin fold, Cln2 fusion (human)
Technique: yeast growth competition, sequencing
Sample: yeast
Setting: strong parent motif
Relative to: not given
Direction: higher = stronger binding
Endpoint: normalised enrichment score
Parent: RBL1 docking peptide (human); GSAKRRLFGEDPP; partner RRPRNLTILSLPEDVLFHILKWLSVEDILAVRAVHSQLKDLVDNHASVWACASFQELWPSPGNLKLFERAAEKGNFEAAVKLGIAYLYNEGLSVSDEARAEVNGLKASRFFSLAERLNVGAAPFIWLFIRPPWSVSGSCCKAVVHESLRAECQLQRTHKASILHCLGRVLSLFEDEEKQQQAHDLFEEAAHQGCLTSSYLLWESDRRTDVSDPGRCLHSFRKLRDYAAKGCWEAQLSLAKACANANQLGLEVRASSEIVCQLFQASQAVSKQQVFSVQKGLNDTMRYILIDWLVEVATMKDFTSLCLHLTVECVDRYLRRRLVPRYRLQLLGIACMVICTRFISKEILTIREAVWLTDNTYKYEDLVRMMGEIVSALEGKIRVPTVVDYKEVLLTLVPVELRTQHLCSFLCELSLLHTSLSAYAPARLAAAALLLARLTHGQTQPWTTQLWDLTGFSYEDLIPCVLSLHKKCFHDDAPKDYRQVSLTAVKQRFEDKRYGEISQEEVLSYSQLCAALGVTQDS
R5W: 0.486
A3Q: 2.11
K4G: 2.98
E10Y: 6.92
G9F: 9.12
R5P: -0.317
S2W: 5.77
K4Y: 5.53

Block 2
Target: Sal-like protein 4, full length isoform A (SALL4, Homo sapiens, UniProt Q9UJQ4, residues 1-1053)
Sequence of UniProt Q9UJQ4 (whole entry, looked up): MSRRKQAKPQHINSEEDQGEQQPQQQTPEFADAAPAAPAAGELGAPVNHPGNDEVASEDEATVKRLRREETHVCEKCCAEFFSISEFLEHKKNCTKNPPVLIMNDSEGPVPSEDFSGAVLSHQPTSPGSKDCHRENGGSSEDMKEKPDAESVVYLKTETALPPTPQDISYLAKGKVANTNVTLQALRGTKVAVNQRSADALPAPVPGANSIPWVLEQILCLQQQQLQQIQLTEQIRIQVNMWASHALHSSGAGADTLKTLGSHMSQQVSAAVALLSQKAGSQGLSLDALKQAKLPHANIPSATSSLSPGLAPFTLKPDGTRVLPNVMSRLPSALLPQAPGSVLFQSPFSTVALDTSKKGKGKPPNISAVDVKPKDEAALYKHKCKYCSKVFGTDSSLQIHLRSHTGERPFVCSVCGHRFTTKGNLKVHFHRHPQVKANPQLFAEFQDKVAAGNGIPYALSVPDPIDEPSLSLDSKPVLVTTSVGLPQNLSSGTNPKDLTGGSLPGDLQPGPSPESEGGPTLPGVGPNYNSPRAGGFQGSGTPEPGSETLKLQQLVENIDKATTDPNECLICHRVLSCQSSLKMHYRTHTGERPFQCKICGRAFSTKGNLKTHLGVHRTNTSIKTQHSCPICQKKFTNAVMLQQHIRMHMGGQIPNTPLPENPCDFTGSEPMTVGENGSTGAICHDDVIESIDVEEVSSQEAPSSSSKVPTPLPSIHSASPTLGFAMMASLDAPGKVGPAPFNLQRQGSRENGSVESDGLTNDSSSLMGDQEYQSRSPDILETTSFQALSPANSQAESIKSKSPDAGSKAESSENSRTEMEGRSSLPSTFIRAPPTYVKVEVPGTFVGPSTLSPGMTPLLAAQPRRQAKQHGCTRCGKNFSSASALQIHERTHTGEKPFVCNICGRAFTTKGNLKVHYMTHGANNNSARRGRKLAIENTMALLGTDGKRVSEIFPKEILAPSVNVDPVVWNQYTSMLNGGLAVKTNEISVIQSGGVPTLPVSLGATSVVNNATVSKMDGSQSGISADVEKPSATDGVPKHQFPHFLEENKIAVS
Technique: universal PBM
Form: double-stranded DNA, one strand shown
Sample: in vitro
Concentration: 600 nM
Setting: 8-mer, flanks averaged, mean of replicates
Direction: higher = stronger binding
Endpoint: E-score
ACCGGTTG: -0.256
CCCCCTCC: -0.409
CATAACGA: 0.15
ACAATAGT: 0.161
ACAACTAT: 0.203
AAGGGAGA: -0.0466
GAGCACGA: -0.0591
GTGTCAGA: -0.0108

Single results of other studies
P1: PafA, mature enzyme, eGFP fusion (Elizabethkingia meningoseptica, UniProt Q9KJX5); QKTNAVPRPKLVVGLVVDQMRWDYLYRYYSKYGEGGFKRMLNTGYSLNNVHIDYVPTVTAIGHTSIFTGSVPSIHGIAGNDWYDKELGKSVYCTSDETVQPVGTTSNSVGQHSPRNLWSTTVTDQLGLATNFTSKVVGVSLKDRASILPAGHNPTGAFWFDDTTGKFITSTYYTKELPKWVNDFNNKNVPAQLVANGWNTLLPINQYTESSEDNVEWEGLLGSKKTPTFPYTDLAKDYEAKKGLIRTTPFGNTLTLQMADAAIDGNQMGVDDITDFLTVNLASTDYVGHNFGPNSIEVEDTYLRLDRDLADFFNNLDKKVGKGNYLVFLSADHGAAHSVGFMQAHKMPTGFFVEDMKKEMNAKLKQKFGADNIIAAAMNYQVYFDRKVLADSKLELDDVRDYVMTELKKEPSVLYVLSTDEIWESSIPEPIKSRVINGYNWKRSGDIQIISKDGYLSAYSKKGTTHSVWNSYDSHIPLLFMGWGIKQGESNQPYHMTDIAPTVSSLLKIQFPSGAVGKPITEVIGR
PhoQ, residues 284 288 289 292 302 303 NLCILV — fold induction (PhoP, residues 12 14 15 18 19 LHSVQ (Escherichia coli, UniProt P23836); Sort-seq, item: YFP reporter; E. coli; PhoQ-PhoP variant library, with: 10 µM Mg2+; relative to: high Mg2+ state, higher = stronger signaling): 7.93
P1 G44A — oxyanion analog dissociation constant (vanadate, free oxyanion; microfluidic competitive inhibition; in vitro, cell-free expressed; not given, derived from inhibition constants, unchanged parent 676 nM; lower = stronger binding): 1.36 µM

A few entries again (single results of other studies):
PhoQ, residues 284 288 289 292 302 303 NLCILV — fold induction (PhoP, residues 12 14 15 18 19 LHSVQ (Escherichia coli, UniProt P23836); Sort-seq, item: YFP reporter; E. coli; PhoQ-PhoP variant library, with: 10 µM Mg2+; relative to: high Mg2+ state, higher = stronger signaling): 7.93
P1 G44A — oxyanion analog dissociation constant (vanadate, free oxyanion; microfluidic competitive inhibition; in vitro, cell-free expressed; not given, derived from inhibition constants, unchanged parent 676 nM; lower = stronger binding): 1.36 µM
